{"data": "Results from different studies", "note": "Each line is one published result; not all experiments were run side by side. “And” joins repeats or separate records; there may be more than shown."}
{"SMILES": "COc1ccccc1-c1ccncc1C(=O)Nc1nnc(OCc2ccc(Cl)cc2)s1", "tested on": "MDA-MB-436 BRCA1-mutant", "setting": "0.1875 µM, single replicate", "how to read": "relative to: untreated", "measurement": "colony survival", "result": "78.6% and 67.3% and 72.3%"}
{"SMILES": "Cc1ncsc1-c1ccc(C(C)NC(=O)C2CC(O)CN2C(=O)C(NC(=O)CCCCCCCCCCN2CCCC(Nc3ncc(Cl)c(Nc4ccccc4S(=O)(=O)C(C)C)n3)C2)C(C)(C)C)cc1 (stereo not drawn)", "tested on": "22Rv1", "test": "RNA-seq, item: NUFIP2 mRNA", "setting": "concentration not given", "how to read": "relative to: DMSO", "measurement": "log2 fold change", "result": -1.19}
{"SMILES": "COC1CN([C@H]2CC[C@H]([C@@]3(C)Oc4c(Cl)cc(C(=O)NCc5c(SC)cc(C)[nH]c5=O)c(C)c4O3)CC2)C1", "test": "RNA-seq, item: BMP2", "test system": "human, whole blood", "setting": "dose not given, 24 h", "how to read": "relative to: pretreatment baseline", "measurement": "log2 fold change", "result": 5.86}
{"SMILES": "CC(C)c1ccc(N(C)c2ccc3c(c2)OCC[C@H]3CNc2cnccc2C(=O)O)cc1", "tested on": "KYSE-30", "test": "cell growth or viability, ATP luminescence", "setting": "7 days", "measurement": "IC50", "result": "2.43 nM"}
{"SMILES": "CNS(=O)(=O)Nc1nccc(Cc2c(C)c3ccc(Oc4ncccc4F)cc3oc2=O)c1F", "tested on": "COLO-800", "test": "cell viability", "setting": "7 days", "measurement": "IC50", "result": "1.02 nM"}
{"SMILES": "Cn1ncc2cc(-c3cncc(Cl)c3N3CCC4(CCNC4=O)CC3)ccc21", "tested on": "LS174T", "test": "gene expression, microarray, item: NOD2 (CARD15) mRNA", "setting": "concentration not given, 4 h", "how to read": "relative to: untreated cells", "measurement": "log2 fold change", "result": 1.05}
{"SMILES": "CN1CCCNC(=O)c2cccc(c2)C(=O)NCCCN(C)CCCNc2cccc3c2C(=O)c2cccc(c2C3=O)NCCC1", "tested on": "SAS", "test": "RNA-Seq, item: B3GAT3 mRNA", "setting": "1 µM, 6 h", "how to read": "relative to: untreated cells", "measurement": "log2 fold change", "result": -0.891}
{"SMILES": "CO[C@@H]1[C@@H](OC(N)=O)[C@@H](O)[C@H](Oc2ccc3c(O)c(NC(=O)c4ccc(O)c(CC=C(C)C)c4)c(=O)oc3c2C)OC1(C)C", "tested on": "HCT-116 BRCA2-/-", "setting": "300 µM, replicate 2", "measurement": "colony count", "result": 0.1}
{"SMILES": "CCN(CC)CC(=O)Nc1cccc(-n2cc(-c3ccc4ccc(-c5cn(-c6cccc(NC(=O)CN(CC)CC)c6)nn5)cc4c3)nn2)c1", "tested on": "RCC4", "test": "PCR angiogenesis array, item: FLT1", "setting": "5 x IC50, 6 h, normoxia", "how to read": "relative to: untreated", "measurement": "fold regulation", "result": 1.06}
{"note": "For quick reference, copied from above:"}
{"SMILES": "CO[C@@H]1[C@@H](OC(N)=O)[C@@H](O)[C@H](Oc2ccc3c(O)c(NC(=O)c4ccc(O)c(CC=C(C)C)c4)c(=O)oc3c2C)OC1(C)C", "tested on": "HCT-116 BRCA2-/-", "setting": "300 µM, replicate 2", "measurement": "colony count", "result": 0.1}
